# Assay results from different studies.
# Each numbered part is a random draw from the data of one study; scales do not carry over between parts. Substitutions count along the parent as printed.

# Sample 1 — technique: RNA Bind-n-Seq; form: RNA; sample: in vitro; concentration: not given; baseline: input RNA pool; direction: higher = stronger binding
# Target: RING finger protein unkempt homolog, zinc fingers 1-6, GST-SBP tag (UNK, Homo sapiens, UniProt Q9C0B0, residues 30-357)
# Sequence of UniProt Q9C0B0 (30-357, looked up): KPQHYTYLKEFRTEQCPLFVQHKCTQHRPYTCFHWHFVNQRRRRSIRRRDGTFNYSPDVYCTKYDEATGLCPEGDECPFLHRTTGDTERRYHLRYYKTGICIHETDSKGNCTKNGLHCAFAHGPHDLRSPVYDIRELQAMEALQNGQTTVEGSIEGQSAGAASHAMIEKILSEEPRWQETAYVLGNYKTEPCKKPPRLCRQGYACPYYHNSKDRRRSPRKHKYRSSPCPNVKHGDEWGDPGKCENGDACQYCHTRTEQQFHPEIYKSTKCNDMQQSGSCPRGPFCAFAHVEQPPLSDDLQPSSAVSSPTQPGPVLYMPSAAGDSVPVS
# Setting: RNA with constant flanks, human and mouse sites, ends assumed
Sequence,bound/input enrichment [ratio]
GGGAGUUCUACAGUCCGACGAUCCCAUGGUUGGUUGAAUCUGGAUGUGGAACCCGCUGACGUGGAUGGCUGACUGUAUUGCAGAACUGGGGCUCCCUUGCAUCUUCCAGUUACAAAUUCAGUGCCUUCUGCAGUUUCCCCAGACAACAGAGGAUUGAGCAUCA,0.162
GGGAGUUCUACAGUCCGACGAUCCGUUAUUUUCAUGUGGUCAUUGCUGGCCCCCAGGAUUCCCCCUUUGAGGGAGGGACUUUUAAACUUGAACUAUUCCUUCCAGAAGAAUACCCAAUGGCAGCACCUAAAAUAAGUGGUCCCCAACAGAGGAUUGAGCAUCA,0.264
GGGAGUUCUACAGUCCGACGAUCUGGCCAUAUUUCCCUAGACGUUAUCCUCUGCCUUGUCAGUUUGUUUGUCUGUGGCUUUUUUUUAGGGGAGGGGGAAGAGAUGGGCAGCUGUAACAAGUAGCCCAGAUAGAUCUAUGGGUGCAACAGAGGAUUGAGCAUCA,1.88
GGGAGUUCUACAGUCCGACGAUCUUCAAUCCAUUGAAAGCAUCCGGGGAUGGAGAAUCACUGGAUGAAGAUUCUGAAUUCACAUUAGCCUCUGAUUUUGAAAUUGGACACUUUUUCCGUGAGCGGAUAGUCCCGCGGGCUGUGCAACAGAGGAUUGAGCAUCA,0.514
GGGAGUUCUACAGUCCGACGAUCGAAGUUCUGCGCCAGAAGCUUUUUGCACUGCAAGCUGAAAUCCAUCGACUAAAGAAGGAAGAGCAGCAGCAGGAAGAAGAAGCAGCAGCUUUGGUCCAGCAUAAGCUGCCGCCUUAUGUUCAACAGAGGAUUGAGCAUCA,0.109
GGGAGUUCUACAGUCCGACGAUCUUUGAUACCGUUAAGAGUGUAUUAGACAAAGAUCGGAAAGAAGAUGACACAAAUGAAUUUGUCAGUGCUGUGUGUUGGCGGGCACUAUCAGACGGGGAGUCCAAUGUGCUGAUUGCUGCUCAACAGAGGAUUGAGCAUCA,0.287
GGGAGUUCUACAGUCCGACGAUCGUUGAUGUGGAUUCUCUUGCUGAGUUAGAUGAUGGAAUGGCUUCCAAUCAAAAUUCUCCCAUUAGAACUUUUGGUCUCAAUCUUUCUUCGGAUUCUUCAGCACUAGGGGCUGUUGCUUCUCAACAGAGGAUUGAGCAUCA,5.29
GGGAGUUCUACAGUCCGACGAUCCUAAGGUUCAAUGUUCAAGAGAAUGGGUUUUUAUCUUCAUUGCCUUAUUUAGGCUCUUGGUUAUGUAUGAUCCUGUCUGGUCAAGCUGCUGACAAUUUAAGGGCAAAAUGGAAUUUUUCACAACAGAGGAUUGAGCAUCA,0.273
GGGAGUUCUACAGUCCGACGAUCGAUCUAUAUACAUUGCCUGUAUCCAGGAGGCUACACACCAGCAAACCGUGAAGGAGAAUGGGACACUGGGUCAUGGCCUGGAGUUGCUGAUAAUUUAGGUGGGAUAGAUACUUGGUCUACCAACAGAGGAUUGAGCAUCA,0.237
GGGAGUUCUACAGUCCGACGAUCCUACUUCCCUGCCCCUCCCUAAUCAGUAUUCUUUCAAGAGUUCUUUGGUGAAGCCAUCUAUCUGAAACUAAAAUGAACCAAACCCAUAUUUCACUGGUGGUUGGAGAAAACCAUGGCCAACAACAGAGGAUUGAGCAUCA,0.434
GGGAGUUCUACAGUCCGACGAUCCAGCGGCAGUCUUUCCCCCCUGUGUGCACCCACAAUAUGCUGGAUGACUCCUCAGACCCCAUCCUGACCACCAUCCGCCGAAUCGGCCUCUUCAAUAGCAGUGCCGACAGGGUGAAGGUGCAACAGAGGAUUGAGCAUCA,0.226

# Sample 2 — technique: protein-binding microarray; form: double-stranded DNA, one strand shown; sample: in vitro; concentration: 0.8 µM; setting: whole 60-bp probe, no competitor; direction: higher = stronger binding
# Target: Centromere-binding protein 1, full length, N-terminal tag (CBF1, Saccharomyces cerevisiae, UniProt P17106, residues 1-351)
# Sequence of UniProt P17106 (whole entry, looked up): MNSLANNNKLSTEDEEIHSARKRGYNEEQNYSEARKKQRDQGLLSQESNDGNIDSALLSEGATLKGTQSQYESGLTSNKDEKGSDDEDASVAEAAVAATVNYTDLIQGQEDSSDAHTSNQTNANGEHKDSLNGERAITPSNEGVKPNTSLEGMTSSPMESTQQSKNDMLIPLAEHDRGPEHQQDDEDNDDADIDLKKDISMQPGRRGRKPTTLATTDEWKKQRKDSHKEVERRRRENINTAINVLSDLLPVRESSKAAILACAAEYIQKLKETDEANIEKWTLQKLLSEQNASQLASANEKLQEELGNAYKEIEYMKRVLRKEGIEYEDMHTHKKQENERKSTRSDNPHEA
Sequence,fluorescence intensity
CTAACAGAAACAAATCACATGTTTCCTTGGCAGTTCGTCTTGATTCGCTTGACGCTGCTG,2620 a.u.
GAACTATGAGCCGTCCACGTTTCCAAAAAAACCTAGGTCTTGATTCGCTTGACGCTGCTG,651 a.u.
CTACTTTAGTACGGTCACCCCATCTACAAGCATTTCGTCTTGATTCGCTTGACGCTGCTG,582 a.u.
GAAATATATTATAATCACGTCTTCCTCCTTTTTTAGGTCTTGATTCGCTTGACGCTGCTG,720 a.u.
CCTAACTACTATAGTGACGGTACATAGCTTCGTACAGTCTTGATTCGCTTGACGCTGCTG,476 a.u.
CCTAACTACTATAATCATGTTCTATAGCTTCGTACAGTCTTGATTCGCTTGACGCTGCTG,512 a.u.
GAATCTCTGCGTCTTCACATGCGCGGGACAACTTAGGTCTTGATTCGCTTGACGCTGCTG,596 a.u.
CTAGGACTGTATATCCATGTGGGAAATGCCCAATTCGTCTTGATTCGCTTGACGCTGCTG,501 a.u.
GAAATAAAACAAATCCACGAGCTGAAGGTAACATAGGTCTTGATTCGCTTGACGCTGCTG,531 a.u.
CTATATTTAATTCAAGGTCATGTGGATTTCAAATTCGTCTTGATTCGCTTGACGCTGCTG,4010 a.u.
TGTACGAAGCTATTGTACGTGCTTATAGTAGTTAGGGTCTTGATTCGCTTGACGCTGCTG,559 a.u.
CTATATGATATCGCTAGCATGATGTTAGTGTTTTTCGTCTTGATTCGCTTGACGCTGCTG,506 a.u.
CTAATTATCTAACATCAGATGGTTTGTCTTTCATTCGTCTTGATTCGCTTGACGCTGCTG,591 a.u.
GAACAGAAGGTCTACCACATGTGTTTTGAATATTAGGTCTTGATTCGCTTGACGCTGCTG,698 a.u.
GAAAATATTTATCGTCACGAATAAATCCCGTGATAGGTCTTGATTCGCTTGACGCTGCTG,1860 a.u.
GAAGCAGAAATCAAACGCGTGGCCCTGAAGGATTAGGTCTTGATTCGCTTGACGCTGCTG,488 a.u.
CCTAACTACTATACCCACGATATATAGCTTCGTACAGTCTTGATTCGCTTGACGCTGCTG,511 a.u.
CTACAATCGAGAGACTTCGTGATTTGTAAAAGTTTCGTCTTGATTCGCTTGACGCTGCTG,569 a.u.
GAATTTTGTTTTTATCAGTTGAGATTGAATTATTAGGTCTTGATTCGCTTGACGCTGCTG,585 a.u.

# Sample 3 — technique: protein-binding microarray; form: double-stranded DNA, one strand shown; sample: in vitro; concentration: 250 nM; setting: 60-bp whole probe; with: salmon DNA 0.4 mg/ml; baseline: random background probes; direction: higher = stronger binding; constant ends, left off below: GCCTAGCAC … GTCTTGATTCGCTTGACGCTGCTG
# Target: Interferon regulatory factor 5, full length, phosphomimetic (IRF5, Homo sapiens, UniProt Q13568-2, residues 1-514, K96S/S451D/S453D/S456D/S462D)
Sequence,log fluorescence [z-score]
TCATGTCTGGAGTCTCTGACTGTGCTA,0.254
TTAGGTCGCGGTTTCGGTTAGTGCTAG,7.8
TCACATTTTGGTTTTCTACTGTGCTAG,1.58
ATGCTTTACTCACTCGGAAAGTGCTAG,0.0473
TCATATATATATTGTTAGACTGTGCTA,0.803
TCAATTTTCGGGTAGATGACTGTGCTA,5.85
ATAGGTTTCGGTTTCGGTTAGTGCTAG,12.1
GACGGTATCGACACTGGGGGCGTGCTA,2.78
TTGTGTTTTCATTTTATGACGTGCTAG,2.27
CTTGCTCTGTGCATAGGTCTGTGCTAG,-0.586
GACGGTTTCGGGTATCGAGACGTGCTA,8.17
TCACTCATGGCTTTGTAGATGTGCTAG,-0.324
TCCAATTACCTTTTCACTTTGTGCTAG,1.54
CTTTCTTTAACATATTCTCTTGTGCTA,1.99
TTAGAACTGGGGTTTCGACTAGTGCTA,2.64
AGATTTTTCTCAACCGTTGTGTGCTAG,0.68
GACGATATCAGACTGTAGACGTGCTAG,0.38
GTCGGACTGGGACTGGGGACGTGCTAG,-0.494
GACGGTATCCTTATCCTGATGTGCTAG,0.106
TTAGAACTGTGGTTTCGATTAGTGCTA,7.58
TTAGAACTGAGTTTCTATTAGTGCTAG,3.55
TTAGATTGCAGTTTCGATTAGTGCTAG,9.14

# Sample 4 — target: CCNF, cyclin fold, Cln2 fusion (human); technique: yeast growth competition, sequencing; sample: yeast; setting: strong parent motif; baseline: not given; direction: higher = stronger binding
# Parent: E2F1 docking peptide (human); PPVKRRLDFETDH
Change,normalised enrichment score
E10D,7.19
R5Q,1.79
V3T,7.65
R6G,5.36
R5V,2.58
D8Y,8.33
V3W,8.2
F9N,0.437
F9Y,6.42
K4P,6.16
E10V,7.85
P2D,7.26
R6H,6.76
E10N,8.12
R5F,-0.111
L7V,3.53
V3F,6.29
D12P,7.77
V3P,7.63
P2H,7.91
F9Q,1.17
D8L,7.49
L7K,0.431
R5L,1.29

# Mixed results
Substance,target,test,test system,conditions,scale,measurement,result
"PhoQ, residues 284 288 289 292 302 303 SVTLVV","PhoP, residues 12 14 15 18 19 NQFFI (Escherichia coli, UniProt P23836)","Sort-seq, item: YFP reporter",E. coli,"PhoQ-PhoP variant library, with: 10 µM Mg2+","baseline: high Mg2+ state, higher = stronger signaling",fold induction,17.7

# A few entries again (sample 3):
Sequence,log fluorescence [z-score]
TTAGAACTGAGTTTCTATTAGTGCTAG,3.55
TCCAATTACCTTTTCACTTTGTGCTAG,1.54
GACGATATCAGACTGTAGACGTGCTAG,0.38
TCACATTTTGGTTTTCTACTGTGCTAG,1.58
TTAGAACTGTGGTTTCGATTAGTGCTA,7.58
